# Results gathered from unrelated publications.
# Lines come from different studies, so protocols differ. Numbers after ± are the reported error.
Structure (SMILES),assay,system,setting,scale,quantity,result
O=C(Nc1cnccc1-c1ccc([18F])nc1)c1ccnc(NC(=O)C2CC2)c1,,"FVB/NJ mouse, both sexes, brain","intravenous, 20 min",,SUV,0.079
Cc1n[nH]c(C)c1CCCOc1cc(C(=O)NCCCCC(NC(=O)CN2CCN(CC(=O)[O-])CCN(CC(=O)[O-])CCN(CC(=O)[O-])CC2)C(=O)NCC2CCC(C(=O)NC(Cc3ccc4ccccc4c3)C(=O)NCCCCC(NC(=O)NC(CCC(=O)O)C(=O)O)C(=O)O)CC2)ccc1F.[68Ga+3] (stereo not drawn),micro-PET/CT,"mouse 22Rv1 xenograft, tumour",1 h post-injection,,maximum tumour uptake,14.8 ± 1.53 %ID/g
Cl.NCc1ccc2c(c1)CN(C1CCC(=O)NC1=O)C2=O (stereo not drawn),,"male cynomolgus monkey, whole blood",,,half-life,4.3 min
CCCC[C@H](NC(=O)CNC(=O)CNC(=O)[C@H](CCCCNC(=O)[C@H](CC(=O)O)NC(=O)C(C)c1ccc(CC(C)C)cc1)NC(=O)CN1CCN(CC(=O)O)CCN(CC(=O)O)CCN(CC(=O)O)CC1)C(=O)N[C@H]1CC(=O)NCCCC[C@@H](C(N)=O)NC(=O)[C@H](Cc2c[nH]c3ccccc23)NC(=O)[C@H](CCCNC(=N)N)NC(=O)[C@@H](Cc2ccccc2)NC(=O)[C@H](Cc2c[nH]cn2)NC1=O (stereo partly drawn) [lutetium-177 labelled],,"C57 mouse, pancreas","intravenous, 2 h, added: 10 µg NDP-MSH co-injection",,tissue uptake,0.23 ± 0.07 %ID/g
CC(=O)N([O-])CCCCCNC(=O)CCC(=O)N([O-])CCCCCNC(=O)CCC(=O)N([O-])CCCCCN.[89Zr+4],radio-TLC,aqueous buffer,"3 d, pH 7, 37 °C, 89Zr-labelled complex, added: DTPA 1000-fold excess",,intact complex,83 ± 3.1%
COc1cccc(OC)c1-c1cc(C(=O)NC2(C(=O)O)C3CC4CC(C3)CC2C4)nn1-c1ccc(C(=O)NCCNC(=O)[C@H](CCCCNC(=O)[C@H](CC(C)C)NC(=O)C2OC2C(=O)O)NC(=O)CN2CCN(CC(=O)[O-])CCN(CC(=O)[O-])CCN(CC(=O)[O-])CC2)cc1C(C)C.[177Lu+3] (mixture of isomers),,mouse HT-29 xenograft,"72 h, biodistribution",baseline: tumour over small intestine,tumour-to-small intestine ratio,16.6
C=CC(=O)Nc1cc(Nc2nccc(-c3c[nH]c4ccccc34)n2)c(OC)cc1N(C)CCN(C)C,,human plasma,"5 h, storage stability, LLOQ sample",,recovery,94.6%
COc1ccnc(C(=O)N[C@H]2COC(=O)[C@H](Cc3ccccc3)[C@@H](OC(=O)C(C)C)[C@H](C)OC2=O)c1O,,wheat grain,-18 °C,,storage stability of residues,9 months
CCCCN1C(=O)c2cccc3c(NCCCCCCCCCCN4CCOCC4)ccc(c23)C1=O,,ethyl acetate,,,fluorescence lifetime,9.6 ns
CC[C@H](C)[C@@H]1NC(=O)[C@H](Cc2ccc(O)cc2)NC(=O)CCCSC[C@@H](C(=O)N(CC(=O)N[C@@H](CC(C)C)C(=O)NCC(N)=O)Cc2ccc(F)cc2)NC(=O)[C@H](CC(N)=O)NC(=O)[C@H](CCC(N)=O)NC1=O,,human,"intranasal, 200 µg single dose",,subjects with any TEAE,67%
COc1cccc(OC)c1-c1cc(C(=O)NC2(C(=O)O)C3CC4CC(C3)CC2C4)nn1-c1ccc(C(=O)N(C)CCCN(C)C(=O)[C@H](CCCCNC(=O)[C@H](CC(C)C)NC(=O)C2OC2C(=O)O)NC(=O)CN2CCN(CC(=O)[O-])CCN(CC(=O)[O-])CCN(CC(=O)[O-])CC2)cc1C(C)C.[177Lu+3] (mixture of isomers),,mouse HT-29 xenograft,"72 h, biodistribution",baseline: tumour over small intestine,tumour-to-small intestine ratio,16.8
Cc1noc(C)c1Cn1cc(N2C(=O)CN(Cc3cccc(OS(=O)(=O)O)c3)C2=O)cn1,,"Sprague-Dawley rat, male","oral, 100 mg/kg of parent drug, 1 h",,plasma concentration,3730 ng/mL
